Results of several laboratories.
Each numbered part is a random draw from the data of one study; scales do not carry over between parts. Changes are numbered by the printed parent chain.

Study 1
Target: Centromere-binding protein 1, full length, N-terminal tag (CBF1, Saccharomyces cerevisiae, UniProt P17106, residues 1-351)
Chain of UniProt P17106 (whole entry, looked up): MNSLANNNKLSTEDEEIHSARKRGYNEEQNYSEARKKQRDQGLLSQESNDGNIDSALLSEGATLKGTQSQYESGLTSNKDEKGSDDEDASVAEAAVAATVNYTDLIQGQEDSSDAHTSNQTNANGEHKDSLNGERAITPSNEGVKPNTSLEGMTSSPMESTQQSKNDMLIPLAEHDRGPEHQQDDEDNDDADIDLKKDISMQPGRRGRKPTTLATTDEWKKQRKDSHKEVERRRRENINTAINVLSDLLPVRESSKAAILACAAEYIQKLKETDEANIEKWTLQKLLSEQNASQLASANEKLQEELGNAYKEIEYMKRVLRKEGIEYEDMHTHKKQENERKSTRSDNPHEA
Method: protein-binding microarray
Molecule type: double-stranded DNA, one strand shown
Medium: in vitro
Concentration: 0.8 µM
Notes: whole 60-bp probe, no competitor
Direction: higher = stronger binding
| Oligonucleotide | fluorescence intensity |
| --- | --- |
| GAAAGTGACAACGAGCACGGGTGCACCATATGGTAGGTCTTGATTCGCTTGACGCTGCTG | 677 a.u. |
| CTACGTACCGCTTCTCAGCTGTTCTTGCCGTCCTTCGTCTTGATTCGCTTGACGCTGCTG | 512 a.u. |
| GAATAAGTAGAATTTTACACCACGCATTTATAATAGGTCTTGATTCGCTTGACGCTGCTG | 610 a.u. |
| CTATATTTTGCGTATCACACCACATCGTCCCTCTTCGTCTTGATTCGCTTGACGCTGCTG | 676 a.u. |

Study 2
Target: CCNB2, cyclin fold, Cln2 fusion (human)
Method: yeast growth competition, sequencing
Medium: yeast
Notes: weak parent motif
Reference: not given
Direction: higher = stronger binding
Starting sequence: PKN2 docking peptide (human); VSAVQKLDFSDTM; partner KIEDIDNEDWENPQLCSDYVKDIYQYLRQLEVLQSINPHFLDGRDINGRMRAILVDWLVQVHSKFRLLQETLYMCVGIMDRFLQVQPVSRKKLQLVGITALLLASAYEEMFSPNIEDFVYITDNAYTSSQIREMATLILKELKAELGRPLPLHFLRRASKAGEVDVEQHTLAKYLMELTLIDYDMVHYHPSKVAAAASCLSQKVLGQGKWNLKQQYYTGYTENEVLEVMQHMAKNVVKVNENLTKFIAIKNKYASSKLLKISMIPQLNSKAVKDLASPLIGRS
| Change | normalised enrichment score |
| --- | --- |
| VSAVQKLDFSDTR [M13R] | 0.381 |
| TSAVQKLDFSDTM [V1T] | 0.182 |
| VSAVQKLDFSDPM [T12P] | 0.539 |
| VSAVQKLDFSDIM [T12I] | -0.103 |

Study 3
Target: Histone acetyltransferase KAT6A, winged helix 2, GST fusion (KAT6A, Homo sapiens, UniProt Q92794, residues 85-181)
Method: protein binding microarray
Molecule type: double-stranded DNA, one strand shown
Medium: in vitro
Concentration: not given
Notes: 8-mer, flanks averaged, mean of 2 arrays, mostly near background
Reference: not given
Direction: higher = stronger binding
Construct (chain): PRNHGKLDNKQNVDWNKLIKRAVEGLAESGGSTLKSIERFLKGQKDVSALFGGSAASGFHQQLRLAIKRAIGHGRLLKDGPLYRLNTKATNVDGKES
| Oligonucleotide | E-score |
| --- | --- |
| AGACGAAT | 0.0206 |
| CTTTTACC | 0.106 |
| CTCAGCCC | -0.00149 |
| CTCAGGAG | 0.0166 |

Mixed results
| Substance | target | assay | test system | setting | scale | quantity | result |
| --- | --- | --- | --- | --- | --- | --- | --- |
| PhoQ, residues 284 288 289 292 302 303 QWQEDG | PhoP, residues 12 14 15 18 19 NMSFL (Escherichia coli, UniProt P23836) | Sort-seq, measured: YFP reporter | E. coli | PhoQ-PhoP variant library, with: 10 µM Mg2+ | reference: high Mg2+ state, higher = stronger signaling | fold induction | 16.5 |

Repeated from above (study 1):
| Oligonucleotide | fluorescence intensity |
| --- | --- |
| CTACGTACCGCTTCTCAGCTGTTCTTGCCGTCCTTCGTCTTGATTCGCTTGACGCTGCTG | 512 a.u. |
